# Assay results pooled from the literature.
# Protocols differ between the studies behind these lines. ± marks the error that the study gave.
# UCHL1: Ubiquitin carboxyl-terminal hydrolase isozyme L1 (UCHL1, Homo sapiens, UniProt P09936)
# Chain of UniProt P09936 (whole entry, looked up): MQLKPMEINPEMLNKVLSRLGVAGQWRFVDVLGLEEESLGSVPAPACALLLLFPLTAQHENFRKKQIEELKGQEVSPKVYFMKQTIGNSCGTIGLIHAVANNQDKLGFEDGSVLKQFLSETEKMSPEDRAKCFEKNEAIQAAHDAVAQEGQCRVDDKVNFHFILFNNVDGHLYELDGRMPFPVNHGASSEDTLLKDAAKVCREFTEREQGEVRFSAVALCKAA
SMILES,tested on,test,setting,measurement,result
NC(=S)N/N=C1\C(=O)N(CCn2ncc3c(=O)[nH]cnc32)c2ccc(Cl)cc21,HepG2,"cell growth, SRB",72 h,IC50,5.48 ± 3.78 µg/mL
NCCCCNCCCN,HepG2,"cell viability, MTT",24 h,IC50,> 10000 µM
[NH2][Pt]([NH2])([Cl])[Cl],HepG2,"cell viability, MTT",72 h,IC50,7.7 ± 0.4 µM
CCOC(=O)c1c(-c2ccc(OC)cc2)oc2ccc(O)c(CN3CCN(Cc4cn(C[C@H]5O[C@H](O[C@H]6O[C@H](CO)[C@@H](O)[C@H](O)[C@H]6O)[C@H](O)[C@@H](O)[C@@H]5O)nn4)CC3)c12,HepG2,"cytotoxicity, resazurin",18 h,IC50,> 200 µM
CC#CC(=O)NC1CCN(S(=O)(=O)c2ccc(C)cc2)C1 (stereo not shown),UCHL1,"covalent, intact protein LC-MS",12.5 µM,labelling,16.1%
N[C@@H](CCC[C@H](N)C(=O)O)C(=O)O,HepG2,"cell viability, MTT",24 h,IC50,> 10000 µM
Nc1ncnc2c1ncn2CCN1C(=O)C(=O)c2cc(F)ccc21,HepG2,"cell growth, SRB",72 h,IC50,5.71 ± 3.64 µg/mL
O=C(O)CCc1ccc(O)c(O)c1,HepG2,"cell viability, MTT",24 h,IC50,> 10000 µM
CNC(=O)c1cc(Oc2ccc(NC(=O)Nc3ccc(Cl)c(C(F)(F)F)c3)cc2)ccn1,HepG2,"cell growth, SRB",72 h,IC50,20.9 ± 8.31 µg/mL
CC(=NNC(=O)c1ccncc1)c1ccc(Nc2nnc(-c3ccc(Cl)cc3)c3ccccc23)cc1,HepG2,"cell growth, MTT",,IC50,0.26 µM
Nc1nc2c(ncn2[C@H]2C[C@H](O)[C@@H](CO)O2)c(=O)[nH]1,HepG2,"cell viability, MTT",24 h,IC50,322 µM
CN1CCC(NC2CCc3[nH]c4c(C(N)=O)ccc(-c5ccccc5Cl)c4c3C2)CC1 (stereo not shown),HepG2,cell growth,,IC50,0.02 µM
COc1ccc(-c2oc3ccc(O)c(CN4CCCCC4)c3c2C(=O)NCc2cn(C[C@H]3O[C@H](O[C@H]4O[C@H](CO)[C@@H](O)[C@H](O)[C@H]4O)[C@H](O)[C@@H](O)[C@@H]3O)nn2)cc1,HepG2,"cytotoxicity, resazurin",18 h,IC50,> 200 µM
O=C1C(=O)N(CCn2ncc3c(=O)[nH]cnc32)c2ccc(F)cc21,HepG2,"cell growth, SRB",72 h,IC50,20.1 ± 9.95 µg/mL
C#CCN1CCN(Cc2c(O)ccc3oc(-c4ccc(OC)cc4)c(C(=O)OCC)c23)CC1,HepG2,viability,18 h,IC50,> 200 µM
N#CC(=Cc1cccc(F)c1F)C(=O)NCc1ccccc1,UCHL1,"covalent, intact protein LC-MS",12.5 µM,labelling,40%

# Some of these lines once more:
SMILES,tested on,test,setting,measurement,result
C#CCN1CCN(Cc2c(O)ccc3oc(-c4ccc(OC)cc4)c(C(=O)OCC)c23)CC1,HepG2,viability,18 h,IC50,> 200 µM
Nc1ncnc2c1ncn2CCN1C(=O)C(=O)c2cc(F)ccc21,HepG2,"cell growth, SRB",72 h,IC50,5.71 ± 3.64 µg/mL
